Assay results of several laboratories.
Lines come from different studies, so protocols differ. ± gives the spread as reported. Values after ≈ are worked out from the molar mass of the structure shown.
ALB: Albumin (ALB, Bos taurus, UniProt P02769)

Chains of the proteins cited; added tags and fusions are not shown. Residues count along the entry.
UniProt P02769, 25-607 limits assumed: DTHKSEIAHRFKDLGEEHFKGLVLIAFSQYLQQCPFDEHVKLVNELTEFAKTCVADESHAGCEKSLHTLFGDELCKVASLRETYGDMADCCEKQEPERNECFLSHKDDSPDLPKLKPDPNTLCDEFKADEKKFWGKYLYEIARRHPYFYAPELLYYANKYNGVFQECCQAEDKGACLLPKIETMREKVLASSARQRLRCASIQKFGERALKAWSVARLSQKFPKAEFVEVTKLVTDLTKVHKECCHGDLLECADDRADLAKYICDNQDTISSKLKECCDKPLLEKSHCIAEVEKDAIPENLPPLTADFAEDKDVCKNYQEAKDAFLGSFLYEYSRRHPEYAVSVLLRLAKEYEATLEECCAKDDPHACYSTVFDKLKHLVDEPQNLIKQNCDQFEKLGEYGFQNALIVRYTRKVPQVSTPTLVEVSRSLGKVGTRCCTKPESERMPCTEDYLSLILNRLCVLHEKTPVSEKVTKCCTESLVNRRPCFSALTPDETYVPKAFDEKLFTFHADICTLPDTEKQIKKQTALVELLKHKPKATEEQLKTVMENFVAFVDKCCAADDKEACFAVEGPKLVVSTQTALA
UniProt P08183, whole entry: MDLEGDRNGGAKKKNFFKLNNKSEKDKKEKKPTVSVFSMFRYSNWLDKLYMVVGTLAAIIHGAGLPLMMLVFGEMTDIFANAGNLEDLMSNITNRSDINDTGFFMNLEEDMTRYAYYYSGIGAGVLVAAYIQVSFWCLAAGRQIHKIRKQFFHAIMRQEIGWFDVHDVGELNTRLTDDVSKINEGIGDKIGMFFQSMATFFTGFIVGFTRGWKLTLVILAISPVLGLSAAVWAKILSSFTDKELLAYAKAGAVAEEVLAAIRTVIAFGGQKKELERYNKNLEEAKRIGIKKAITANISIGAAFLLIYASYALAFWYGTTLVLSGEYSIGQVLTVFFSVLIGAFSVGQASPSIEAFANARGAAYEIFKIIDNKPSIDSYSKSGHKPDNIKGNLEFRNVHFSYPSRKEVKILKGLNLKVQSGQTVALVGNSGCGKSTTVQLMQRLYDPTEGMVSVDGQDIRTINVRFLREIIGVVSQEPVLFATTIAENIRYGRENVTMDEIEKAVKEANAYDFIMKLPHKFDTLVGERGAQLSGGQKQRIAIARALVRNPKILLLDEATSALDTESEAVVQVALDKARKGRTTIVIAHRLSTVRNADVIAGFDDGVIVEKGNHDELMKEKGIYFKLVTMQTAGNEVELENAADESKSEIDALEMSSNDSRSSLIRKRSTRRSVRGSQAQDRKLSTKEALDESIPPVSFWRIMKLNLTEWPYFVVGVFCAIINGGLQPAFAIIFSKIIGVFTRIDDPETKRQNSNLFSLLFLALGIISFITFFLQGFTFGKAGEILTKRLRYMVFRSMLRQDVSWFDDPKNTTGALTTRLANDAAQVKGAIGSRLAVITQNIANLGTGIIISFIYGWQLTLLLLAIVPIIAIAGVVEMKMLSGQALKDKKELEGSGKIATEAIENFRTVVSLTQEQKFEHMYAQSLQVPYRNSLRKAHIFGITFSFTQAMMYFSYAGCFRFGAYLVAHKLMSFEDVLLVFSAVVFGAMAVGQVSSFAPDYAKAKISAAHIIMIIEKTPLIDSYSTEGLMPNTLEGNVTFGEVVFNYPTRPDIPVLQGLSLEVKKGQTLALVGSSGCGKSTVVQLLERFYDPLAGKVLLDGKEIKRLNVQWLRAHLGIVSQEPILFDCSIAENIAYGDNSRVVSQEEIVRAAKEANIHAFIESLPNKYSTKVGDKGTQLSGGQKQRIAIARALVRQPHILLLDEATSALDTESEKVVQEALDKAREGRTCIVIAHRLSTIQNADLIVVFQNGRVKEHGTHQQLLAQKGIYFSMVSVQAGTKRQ
UniProt P05177, whole entry: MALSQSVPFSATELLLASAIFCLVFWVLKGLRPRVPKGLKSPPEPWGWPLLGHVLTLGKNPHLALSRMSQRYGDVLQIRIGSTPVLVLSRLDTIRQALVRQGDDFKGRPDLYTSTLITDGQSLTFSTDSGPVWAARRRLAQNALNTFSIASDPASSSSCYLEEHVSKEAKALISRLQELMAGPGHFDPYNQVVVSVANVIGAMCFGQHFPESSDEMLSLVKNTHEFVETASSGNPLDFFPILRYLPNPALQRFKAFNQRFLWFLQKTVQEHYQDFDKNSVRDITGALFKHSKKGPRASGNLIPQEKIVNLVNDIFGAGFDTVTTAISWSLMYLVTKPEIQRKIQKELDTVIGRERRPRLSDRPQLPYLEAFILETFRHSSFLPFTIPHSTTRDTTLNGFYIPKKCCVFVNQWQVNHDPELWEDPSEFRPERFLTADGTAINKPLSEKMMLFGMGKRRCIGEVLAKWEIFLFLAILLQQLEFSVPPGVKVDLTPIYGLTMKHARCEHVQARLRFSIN
UniProt Q9HBY8, whole entry: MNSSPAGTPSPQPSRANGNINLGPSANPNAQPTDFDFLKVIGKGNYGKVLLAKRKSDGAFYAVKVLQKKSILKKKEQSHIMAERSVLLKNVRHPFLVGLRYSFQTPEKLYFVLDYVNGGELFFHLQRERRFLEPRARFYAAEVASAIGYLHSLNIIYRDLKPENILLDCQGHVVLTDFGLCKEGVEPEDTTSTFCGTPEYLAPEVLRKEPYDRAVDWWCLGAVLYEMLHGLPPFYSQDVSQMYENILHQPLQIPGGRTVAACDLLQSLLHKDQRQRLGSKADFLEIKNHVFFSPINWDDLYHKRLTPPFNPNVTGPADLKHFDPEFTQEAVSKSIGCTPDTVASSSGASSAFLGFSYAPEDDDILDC
UniProt P11712, whole entry: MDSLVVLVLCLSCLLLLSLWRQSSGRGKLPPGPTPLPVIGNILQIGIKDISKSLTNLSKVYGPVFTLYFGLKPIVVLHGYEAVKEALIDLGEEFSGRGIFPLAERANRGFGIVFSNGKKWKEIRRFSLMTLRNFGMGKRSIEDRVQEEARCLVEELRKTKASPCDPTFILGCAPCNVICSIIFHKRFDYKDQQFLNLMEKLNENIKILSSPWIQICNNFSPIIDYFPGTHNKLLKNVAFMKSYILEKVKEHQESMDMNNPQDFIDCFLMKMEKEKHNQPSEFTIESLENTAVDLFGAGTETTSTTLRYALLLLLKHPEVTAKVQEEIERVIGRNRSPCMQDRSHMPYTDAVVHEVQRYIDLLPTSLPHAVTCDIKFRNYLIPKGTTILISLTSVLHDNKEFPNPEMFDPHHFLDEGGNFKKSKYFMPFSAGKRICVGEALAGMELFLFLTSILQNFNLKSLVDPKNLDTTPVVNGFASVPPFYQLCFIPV

Compound	target or system	test	system	setting	how to read	endpoint	value
CO[C@]12CC[C@@]3(C[C@@H]1C(C)(C)O)[C@H]1Cc4ccc(O)c5c4[C@@]3(CCN1CC1CC1)[C@H]2O5	ABCB1 (Homo sapiens, UniProt P08183)	P-gp ATPase activity		100 µM, 40 min	reference: basal activity, negative means inhibition	fold stimulation	-0.91 ± 0.96 fold
Cc1cc(Cl)c2c(c1N)C(=O)c1ccccc1C2=O	Cytochrome P450 1A2 (CYP1A2, Homo sapiens, UniProt P05177)	enzyme activity, mechanism-based inhibitor		pre-incubation without NADPH		KI	0.5 µM
O=C(Cc1ccccc1Cl)N1CCN(c2ccc3nncn3n2)CC1	ALB	binding, fluorescence quenching		pH 7.4		IC50	> 100 µM
CC#C/C(=N\OC[C@H]1COCCN1)c1ccc2ncnc(Nc3ccc(OCc4cccc(F)c4)c(Cl)c3)c2c1			nude mouse, plasma	oral, 12.5 mg/kg		Tmax	1 h
CCCc1nn2c(=O)cc(CSc3nc(-c4ccc(C)cc4)nc4cc(=O)[nH]n34)nc2s1		dynamic light scattering	assay buffer	40 µM, with Tween 20		particle size	7.2 nm
CCN1CCN(Cc2ccc(NC(=O)c3ccc(C)c(/C=C/c4cnc5[nH]ccc5c4OC)c3)cc2C(F)(F)F)CC1	SGK2 (Homo sapiens, UniProt Q9HBY8)	kinase-CDC37 interaction, inhibitor	human cells	5 µM	reference: vehicle	log2 fold change	0.142
Cc1cc2ccccc2n1CCNC(=O)c1ccc(-c2nnn[nH]2)cc1		nephelometry	PBS with 1% DMSO	pH 7.4		kinetic solubility	0.257 µM (≈ 0.089 µg/mL)
CC(=O)N1C[C@@H](COP(=O)(N(C)C)N2C[C@@H](COP(=O)(N(C)C)N3C[C@@H](COP(=O)(N(C)C)N4C[C@@H](COP(=O)(N(C)C)N5C[C@@H](COP(=O)(N(C)C)N6C[C@@H](COP(=O)(N(C)C)N7C[C@@H](COP(=O)(N(C)C)N8C[C@@H](COP(=O)(N(C)C)N9C[C@@H](COP(=O)(N(C)C)N%10C[C@@H](COP(=O)(N(C)C)N%11C[C@@H](COP(=O)(N(C)C)N%12C[C@@H](COP(=O)(N(C)C)N%13C[C@@H](COP(=O)(N(C)C)N%14C[C@@H](COP(=O)(N(C)C)N%15C[C@@H](COP(=O)(N(C)C)N%16C[C@@H](COP(=O)(N(C)C)N%17C[C@@H](COP(=O)(N(C)C)N%18C[C@@H](COP(=O)(N(C)C)N%19C[C@@H](COP(=O)(N(C)C)N%20C[C@@H](COP(=O)(N(C)C)N%21C[C@@H](COP(=O)(N(C)C)N%22C[C@@H](COP(=O)(N(C)C)N%23C[C@@H](COP(=O)(N(C)C)N%24CCN(C(=O)CCCN%25C(=O)CC(SC[C@H](NC(=O)[C@H](CCCNC(=N)N)NC(=O)[C@H](CCCNC(=N)N)NC(=O)[C@H](CCCNC(=N)N)NC(=O)[C@H](CCCNC(=N)N)NC(=O)[C@H](Cc%26ccccc%26)NC(=O)[C@H](Cc%26ccccc%26)NC(=O)[C@H](CCCNC(=N)N)NC(=O)[C@H](CCCNC(=N)N)NC(=O)[C@H](CCCNC(=N)N)NC(=O)[C@H](CCCNC(=N)N)NC(=O)[C@@H](N)CCCNC(=N)N)C(N)=O)C%25=O)CC%24)O[C@@H](n%24cnc%25c(=O)[nH]c(N)nc%25%24)C%23)O[C@@H](n%23cc(C)c(=O)[nH]c%23=O)C%22)O[C@@H](n%22ccc(N)nc%22=O)C%21)O[C@@H](n%21cnc%22c(N)ncnc%22%21)C%20)O[C@@H](n%20cc(C)c(=O)[nH]c%20=O)C%19)O[C@@H](n%19ccc(N)nc%19=O)C%18)O[C@@H](n%18cc(C)c(=O)[nH]c%18=O)C%17)O[C@@H](n%17cc(C)c(=O)[nH]c%17=O)C%16)O[C@@H](n%16cnc%17c(=O)[nH]c(N)nc%17%16)C%15)O[C@@H](n%15ccc(N)nc%15=O)C%14)O[C@@H](n%14cnc%15c(=O)[nH]c(N)nc%15%14)C%13)O[C@@H](n%13ccc(N)nc%13=O)C%12)O[C@@H](n%12ccc(N)nc%12=O)C%11)O[C@@H](n%11cnc%12c(N)ncnc%12%11)C%10)O[C@@H](n%10cc(C)c(=O)[nH]c%10=O)C9)O[C@@H](n9cc(C)c(=O)[nH]c9=O)C8)O[C@@H](n8cc(C)c(=O)[nH]c8=O)C7)O[C@@H](n7cc(C)c(=O)[nH]c7=O)C6)O[C@@H](n6cc(C)c(=O)[nH]c6=O)C5)O[C@@H](n5cnc6c(=O)[nH]c(N)nc65)C4)O[C@@H](n4cc(C)c(=O)[nH]c4=O)C3)O[C@@H](n3cnc4c(=O)[nH]c(N)nc43)C2)O[C@@H](n2cnc3c(=O)[nH]c(N)nc32)C1 (stereo partly shown)	BCBL1 cells			8 and 16 µM		cytotoxicity	not toxic
O=C(Nc1ccccc1)c1cc([N+](=O)[O-])ccc1Cl	Salmonella typhimurium	Ames plate incorporation	TA98	500 µg/plate, without metabolic activation		revertants	272 ± 3 revertants/plate
CCCCCCCCCCCCCC(=S)NCCCC[C@H](NC(=O)OCc1ccccc1)C(=O)Nc1cccc(O)c1	HME1	cell growth		normal cells K-Ras wild type		GI50	11 ± 4 µM
CSCC[C@@H](C=O)NC(=O)[C@H](CC(C)C)NC(=O)[C@H](CC(C)C)NC(C)=O	HCT-8	neutral red uptake		48 h		CC50	> 100 µM
CO[C@]12CC[C@@]3(C[C@@H]1C(C)(C)O)[C@H]1Cc4ccc(O)c5c4[C@@]3(CCN1CC1CC1)[C@H]2O5		shake-flask	n-octanol/phosphate buffer	pH 7.4		logD	2.25 ± 0.02
COc1cc(OC)c2ccccc2c1C=C1C(=O)NC(=S)NC1=O	DLBCL cell lines except HBL1			4 µM, 48 h		viability	≥ 60%
CCOc1ccc2cc(-c3nn(CC4CCN(C)CC4)c4ncnc(N)c34)ccc2n1				concentration not given, monkey		half-life	> 2 h
CC[C@@H](C(N)=O)N1CCCC1=O		LC-MS/MS	rat, control, whole blood	intramuscular, 50 mg/kg levetiracetam, added: atropine 5 mg/kg		Cmax	28000 ng/mL
O=C(NCc1ccc2c(c1)OCO2)C(=O)Nc1ccccc1	ALB	binding, fluorescence quenching		pH 7.4		IC50	> 100 µM
CO[C@]12CC[C@@]3(C[C@@H]1C(C)(C)O)[C@H]1Cc4ccc(O)c5c4[C@@]3(CCN1CC1CC1)[C@H]2O5	Cytochrome P450 2C9 (CYP2C9, Homo sapiens, UniProt P11712)		human liver microsomes	10 µM		inhibition	2.3%
COC(=O)c1ccc(Cl)cc1NC(=O)CSc1ncc(S(=O)(=O)c2ccc(Br)cc2)c(=O)[nH]1		dynamic light scattering	assay buffer	40 µM, without Tween 20		particle size	966 nm
C=C[C@@H]1[C@H]2CCC[C@]1(c1cccc(O)c1)CCN2CCc1ccccc1			rat cytosol 2 mg/mL	1 µM, pH 7.4		half-life	1.36 h
CC(CCC(=O)N(CCNC(=O)C(F)(F)F)CC(=O)O)[C@H]1CC[C@H]2[C@@H]3[C@H](O)C[C@@H]4C[C@H](O)CC[C@]4(C)[C@H]3C[C@H](O)[C@]12C (stereo partly shown)		LC-MS/MS	mouse, gallbladder	oral, 150 mg/kg		gallbladder concentration	14.8 mM
C[C@H](Cc1ccc(O)c(O)c1)[C@@H](C)Cc1ccc(O)c(O)c1			human skin	2% w/v solution, 24 h		total amount delivered	5.06 ± 0.71 µg
CCOC(=O)OCOc1c(-c2ccc(Oc3ccc(OC(F)(F)F)cc3)cc2)c(C)nc2cc(OC)c(Cl)cc12	HepG2	ATP production		72 h, galactose medium		highest non-toxic concentration	≥ 25 µM

Repeated from above:
Compound	target or system	test	system	setting	how to read	endpoint	value
C=C[C@@H]1[C@H]2CCC[C@]1(c1cccc(O)c1)CCN2CCc1ccccc1			rat cytosol 2 mg/mL	1 µM, pH 7.4		half-life	1.36 h
O=C(Nc1ccccc1)c1cc([N+](=O)[O-])ccc1Cl	Salmonella typhimurium	Ames plate incorporation	TA98	500 µg/plate, without metabolic activation		revertants	272 ± 3 revertants/plate
